Measured values from different studies.
Compare with care: the assays were run in different laboratories.
Target: Histone deacetylase 3 (HDAC3, Homo sapiens, UniProt O15379)
Chain of UniProt O15379 (whole entry, looked up): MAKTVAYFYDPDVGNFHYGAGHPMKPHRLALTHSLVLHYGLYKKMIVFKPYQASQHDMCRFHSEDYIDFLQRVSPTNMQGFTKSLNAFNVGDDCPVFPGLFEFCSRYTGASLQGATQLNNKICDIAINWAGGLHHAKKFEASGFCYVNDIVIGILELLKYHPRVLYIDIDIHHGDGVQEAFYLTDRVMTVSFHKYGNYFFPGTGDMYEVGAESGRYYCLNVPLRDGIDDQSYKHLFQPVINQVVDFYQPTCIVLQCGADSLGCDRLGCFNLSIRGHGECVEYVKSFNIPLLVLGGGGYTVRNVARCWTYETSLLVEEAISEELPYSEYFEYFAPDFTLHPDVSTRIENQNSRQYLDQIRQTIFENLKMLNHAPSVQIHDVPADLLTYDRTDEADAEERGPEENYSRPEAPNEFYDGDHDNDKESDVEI
Mode: inhibitor

O=C(CCCCCCN(Cc1ccccc1)Cc1ccccc1)NO
IC50 (enzyme activity, fluorescence): 1.1 µM

O=C(/C=C/c1ccc2c(c1)CCN(Cc1ccccc1)C2=O)NO
IC50 (enzyme activity): 0.37 µM

COCCn1cc2c(n1)CN(C(=O)Nc1nc(-c3ccc(F)cc3F)ccc1N)C2
IC50 (deacetylase activity; co-expressed with NCOR2): 27.6 µM

O=C(CCCCCCN(Cc1ccc([N+](=O)[O-])cc1)Cc1ccc([N+](=O)[O-])cc1)NO
IC50 (enzyme activity, fluorescence): 1.4 µM

COC(=O)c1ccc(Cn2sc3ccccc3c2=O)cc1
IC50 (enzyme activity): 8.2 µM

O=C(CCCCCCNc1ccc(C(=O)Nc2ccc(Cl)c(NC(=O)c3cccc(Cl)c3)c2)cn1)NO
IC50 (enzyme activity, fluorescence; lysate): 0.0714 µM

O=C(CCCCCCC(=O)Nc1ccc(-[c-]2cccc2)cc1)NO.[Fe+2].c1cc[cH-]c1
IC50 (enzyme activity, fluorescence): 0.009 µM

Cc1ncc2c(n1)CN(C(=O)Nc1nc(-c3cccs3)ccc1N)C2
IC50 (deacetylase activity; co-expressed with NCOR2): > 30 µM

O=c1c2ccccc2on1-c1ccccc1
IC50 (enzyme activity): > 10 µM

COc1ccc(CN(CCCCCCC(=O)NO)Cc2ccc(OC)c(OC)c2)cc1OC
IC50 (enzyme activity, fluorescence): 0.29 µM

Nc1ccc(-c2ccc(F)cc2)cc1NC(=O)C1CCC1
IC50 (enzyme activity): 0.548 µM

Cc1cc(CNCCCCCCC(=O)NO)ccc1F
IC50 (enzyme activity, fluorescence): 0.19 µM

O=C(CCCCCCNC(=O)c1cc(C(=O)c2ccccc2)cn1Cc1ccc(F)cc1)NO
IC50 (enzyme activity): 1.15 µM

O=C(CCCCCCNCc1ccc([N+](=O)[O-])cc1)NO
IC50 (enzyme activity, fluorescence): 1 µM

Nc1ccc(-c2ccc(F)cc2)cc1NC(=O)N1CCC1
IC50 (enzyme activity): 1.75 µM

O=c1[nH]sc2ccccc12
IC50 (enzyme activity): > 10 µM

O=C(CCCCCCC(=O)NC[c-]1cccc1)NO.[Fe+2].c1cc[cH-]c1
IC50 (enzyme activity, fluorescence): 0.072 µM

O=C(CCCCCCN(Cc1cc2ccccc2[nH]1)Cc1cc2ccccc2[nH]1)NO
IC50 (enzyme activity, fluorescence): 1.3 µM

Nc1ccc(-c2cccs2)cc1N
IC50 (enzyme activity): > 33.3 µM

O=c1c2ccccc2sn1Cc1ccccc1
IC50 (enzyme activity): 5.01 µM

A few entries again:
Nc1ccc(-c2ccc(F)cc2)cc1NC(=O)N1CCC1
IC50 (enzyme activity): 1.75 µM

O=C(CCCCCCN(Cc1ccc([N+](=O)[O-])cc1)Cc1ccc([N+](=O)[O-])cc1)NO
IC50 (enzyme activity, fluorescence): 1.4 µM
